Assay results pooled from the literature.
Numbered parts are unrelated; each lists some results of a single study. “And” joins repeats or separate records; there may be more than shown.
UniProt Q00535, sequence (whole entry, looked up): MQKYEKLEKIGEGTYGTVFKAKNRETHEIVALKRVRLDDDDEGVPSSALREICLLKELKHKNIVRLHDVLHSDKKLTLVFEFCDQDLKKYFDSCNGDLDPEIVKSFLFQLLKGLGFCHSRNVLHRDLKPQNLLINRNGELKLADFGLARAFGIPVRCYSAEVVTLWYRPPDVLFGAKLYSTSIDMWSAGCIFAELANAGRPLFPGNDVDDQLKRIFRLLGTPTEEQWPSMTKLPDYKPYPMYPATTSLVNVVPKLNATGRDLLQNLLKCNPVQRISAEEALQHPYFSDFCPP
UniProt P49760, sequence (whole entry, looked up): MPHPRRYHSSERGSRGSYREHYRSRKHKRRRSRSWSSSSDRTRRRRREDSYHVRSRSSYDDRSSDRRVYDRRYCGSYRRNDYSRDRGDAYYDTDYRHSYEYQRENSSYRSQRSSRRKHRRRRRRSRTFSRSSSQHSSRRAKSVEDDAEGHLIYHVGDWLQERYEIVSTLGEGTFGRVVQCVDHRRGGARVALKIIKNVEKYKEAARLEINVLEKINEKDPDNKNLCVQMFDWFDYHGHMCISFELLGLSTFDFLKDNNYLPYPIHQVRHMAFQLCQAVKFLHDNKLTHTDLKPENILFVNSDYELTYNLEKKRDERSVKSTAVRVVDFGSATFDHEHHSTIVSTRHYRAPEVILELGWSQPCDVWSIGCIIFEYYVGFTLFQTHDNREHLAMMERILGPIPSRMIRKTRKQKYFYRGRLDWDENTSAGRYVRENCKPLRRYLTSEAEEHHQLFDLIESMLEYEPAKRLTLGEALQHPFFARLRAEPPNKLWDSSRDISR
UniProt P07333, sequence (whole entry, looked up): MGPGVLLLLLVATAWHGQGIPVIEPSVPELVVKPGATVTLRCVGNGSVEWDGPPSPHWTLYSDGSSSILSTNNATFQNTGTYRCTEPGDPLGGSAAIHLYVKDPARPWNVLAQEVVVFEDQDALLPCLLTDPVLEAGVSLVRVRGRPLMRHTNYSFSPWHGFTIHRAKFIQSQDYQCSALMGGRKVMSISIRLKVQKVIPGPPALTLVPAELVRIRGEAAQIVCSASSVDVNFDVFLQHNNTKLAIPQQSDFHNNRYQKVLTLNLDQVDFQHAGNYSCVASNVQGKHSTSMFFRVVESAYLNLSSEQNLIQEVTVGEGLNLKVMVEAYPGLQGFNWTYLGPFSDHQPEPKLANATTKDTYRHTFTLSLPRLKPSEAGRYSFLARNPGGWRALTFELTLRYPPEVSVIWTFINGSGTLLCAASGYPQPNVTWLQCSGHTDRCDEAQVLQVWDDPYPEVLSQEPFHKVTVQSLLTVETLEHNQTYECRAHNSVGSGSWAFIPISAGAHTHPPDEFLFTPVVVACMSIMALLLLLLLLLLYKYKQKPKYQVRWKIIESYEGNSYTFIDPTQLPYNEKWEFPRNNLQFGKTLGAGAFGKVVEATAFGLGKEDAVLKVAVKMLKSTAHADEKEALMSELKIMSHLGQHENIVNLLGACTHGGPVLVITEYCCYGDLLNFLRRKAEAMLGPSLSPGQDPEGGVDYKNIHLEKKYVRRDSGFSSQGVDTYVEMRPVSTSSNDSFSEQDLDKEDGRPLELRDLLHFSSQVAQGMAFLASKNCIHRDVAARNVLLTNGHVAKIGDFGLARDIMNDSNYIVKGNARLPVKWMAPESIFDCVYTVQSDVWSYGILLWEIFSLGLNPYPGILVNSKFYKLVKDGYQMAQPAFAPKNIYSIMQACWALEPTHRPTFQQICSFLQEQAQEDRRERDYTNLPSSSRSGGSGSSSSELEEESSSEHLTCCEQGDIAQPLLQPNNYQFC

Block 1 — SMILES: CCC(=N\O)/C(C)=C/c1ccc(F)cc1; effect on: cell-free assay; method: competition with immobilised ligand; tested at: 1 µM
target	remaining binding [%]
Receptor-type tyrosine-protein kinase FLT3 (FLT3, Homo sapiens, UniProt P36888, R834Q)	80
Serine/threonine-protein kinase 38-like (STK38L, Homo sapiens, UniProt Q9Y2H1)	95
Mitogen-activated protein kinase kinase kinase 5 (MAP3K5, Homo sapiens, UniProt Q99683)	93
Aurora kinase B (AURKB, Homo sapiens, UniProt Q96GD4)	68
Mitogen-activated protein kinase 3 (MAPK3, Homo sapiens, UniProt P27361)	69
Ephrin type-B receptor 2 (EPHB2, Homo sapiens, UniProt P29323)	76
Phosphatidylinositol 4,5-bisphosphate 3-kinase catalytic subunit alpha isoform (PIK3CA, Homo sapiens, UniProt P42336, E545K)	100
Receptor-type tyrosine-protein kinase FLT3 (FLT3, Homo sapiens, UniProt P36888, D835Y)	91
Cyclin-dependent kinase 5 (CDK5, Homo sapiens, UniProt Q00535)	68
Tyrosine-protein kinase ABL2 (ABL2, Homo sapiens, UniProt P42684)	82
Megakaryocyte-associated tyrosine-protein kinase (MATK, Homo sapiens, UniProt P42679)	72
Epidermal growth factor receptor (EGFR, Homo sapiens, UniProt P00533, del747-752/P753S)	67
Activin receptor type-2A (ACVR2A, Homo sapiens, UniProt P27037)	100
Serine/threonine-protein kinase B-raf (BRAF, Homo sapiens, UniProt P15056)	87
Tyrosine-protein kinase ABL1, non-phosphorylated (ABL1, Homo sapiens, UniProt P00519, T315I)	75
Macrophage colony-stimulating factor 1 receptor, autoinhibited (CSF1R, Homo sapiens, UniProt P07333)	100
Serine/threonine-protein kinase ICK (CILK1, Homo sapiens, UniProt Q9UPZ9)	100
Casein kinase I isoform epsilon (CSNK1E, Homo sapiens, UniProt P49674)	99
Epidermal growth factor receptor (EGFR, Homo sapiens, UniProt P00533, A750P/del747-749)	69
Dual specificity protein kinase CLK2 (CLK2, Homo sapiens, UniProt P49760)	78
Ankyrin repeat and protein kinase domain-containing protein 1 (ANKK1, Homo sapiens, UniProt Q8NFD2)	79
Calcium/calmodulin-dependent protein kinase type 1 (CAMK1, Homo sapiens, UniProt Q14012)	100
Receptor-type tyrosine-protein kinase FLT3 (FLT3, Homo sapiens, UniProt P36888, ITD)	94
Serine/threonine-protein kinase RIO3 (RIOK3, Homo sapiens, UniProt O14730)	78
Serine/threonine-protein kinase Nek6 (NEK6, Homo sapiens, UniProt Q9HC98)	87

Block 2 — cell line: A-375; tested at: 100 µM; time: 36 h
SMILES	viability [%]
COCC(=O)Nc1c(I)c(C(=O)NCC(O)CO)c(I)c(C(=O)N(C)CC(O)CO)c1I (mixture of isomers)	90.1
OC1(c2ccc(Cl)c(C(F)(F)F)c2)CCN(CCCC(c2ccc(F)cc2)c2ccc(F)cc2)CC1	-0.743
C[C@@H]1O[C@@H](OC[C@H]2O[C@@H](Oc3c(-c4ccc(OCCO)c(OCCO)c4)oc4cc(OCCO)cc(O)c4c3=O)[C@H](O)[C@@H](O)[C@@H]2O)[C@H](O)[C@H](O)[C@H]1O	108
CN(C(=O)CN(CCO)CC(=O)N(C)C(C)(C)Cc1ccccc1)C(C)(C)Cc1ccccc1	-1.68
Cc1cccc(C)c1NC(=O)c1ccccc1C(=O)O	106
C=CCc1ccc(O)c(-c2cc(CC=C)ccc2O)c1	0.387
CCCSc1nc(N[C@@H]2C[C@H]2c2ccc(F)c(F)c2)c2nnn([C@@H]3C[C@H](OCCO)[C@@H](O)[C@H]3O)c2n1	-2.03
Cn1c(=O)c2c(ncn2CCO)n(C)c1=O	102
CC(C)c1cc2c(cc1S(=O)(=O)O)[C@@]1(C)CCC[C@@](C)(C(=O)O)[C@@H]1CC2	108
Nc1nc2c(ncn2COCCO)c(=O)[nH]1	103

Block 3 — tested at: 1 µM
Compound: CN1CCN(C(=O)c2ccc(NC(=O)Nc3ccc(N(C)c4ccnc(Nc5ccc(CS(C)(=O)=O)cc5)n4)cc3)cc2)CC1
target	remaining activity [%]
Angiopoietin-1 receptor (TEK, Homo sapiens, UniProt Q02763)	41
Platelet-derived growth factor receptor alpha (PDGFRA, Homo sapiens, UniProt P16234)	2
Vascular endothelial growth factor receptor 2 (KDR, Homo sapiens, UniProt P35968)	1.1
Cyclin-dependent kinase 8 (CDK8, Homo sapiens, UniProt P49336)	85
Mast/stem cell growth factor receptor Kit (KIT, Homo sapiens, UniProt P10721)	0
Vascular endothelial growth factor receptor 1 (FLT1, Homo sapiens, UniProt P17948)	0.4
Citron Rho-interacting kinase (CIT, Homo sapiens, UniProt O14578)	79

Block 4 — effect on: enzyme activity; mode: inhibitor; tested at: 10 µM
Target: Calcium/calmodulin-dependent protein kinase type II subunit alpha (CAMK2A, Homo sapiens, UniProt Q9UQM7)
UniProt Q9UQM7, sequence (whole entry, looked up): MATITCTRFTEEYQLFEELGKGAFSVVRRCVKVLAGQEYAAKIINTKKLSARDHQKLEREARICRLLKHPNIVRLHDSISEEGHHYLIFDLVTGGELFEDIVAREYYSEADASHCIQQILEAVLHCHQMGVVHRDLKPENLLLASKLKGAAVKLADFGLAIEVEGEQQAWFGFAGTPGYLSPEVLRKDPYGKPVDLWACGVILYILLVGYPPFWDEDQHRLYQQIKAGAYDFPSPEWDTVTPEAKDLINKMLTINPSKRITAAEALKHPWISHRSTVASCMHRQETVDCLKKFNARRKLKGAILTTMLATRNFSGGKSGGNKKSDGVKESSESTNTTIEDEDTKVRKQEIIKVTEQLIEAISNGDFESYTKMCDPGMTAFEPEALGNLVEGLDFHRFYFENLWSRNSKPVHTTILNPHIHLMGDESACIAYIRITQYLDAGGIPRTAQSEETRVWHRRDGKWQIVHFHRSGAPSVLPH
Structure (SMILES)	inhibition [%]
CCC(=O)O[C@H](CC(=O)O)C[N+](C)(C)C	-3
Cc1cc(O)c2c(c1)C(=O)c1cc(O)cc(O[C@@H]3O[C@H](CO)[C@@H](O)[C@H](O)[C@H]3O)c1C2=O	-13
CC(C)=CCc1c(O)ccc(-c2coc3cc(O)cc(O)c3c2=O)c1O	3
COc1ccc(-c2noc(CC(=O)O)c2-c2ccc(OC)cc2)cc1	-2
CO[C@]1(C(=O)N[C@@H](C)c2ccc(-n3cc(F)cn3)nc2)CC[C@H](c2nc(C)cc(Nc3cc(C)[nH]n3)n2)CC1	-3
CNC(=O)c1ccc(-c2cnc3ncc(Cc4ccc5ncccc5c4)n3n2)cc1F	7
COc1cc(/C=C/C(=O)NCCc2ccc(O)cc2)ccc1O	18
O[C@@H]1CO[C@H]2[C@@H]1OC[C@@H]2O	-11

Block 5 — effect on: enzyme activity; mode: inhibitor; tested at: 77 µM; baseline: untreated
Target: DNA polymerase theta, ATPase domain (POLQ, Homo sapiens, UniProt O75417)
UniProt O75417, sequence (whole entry, unmodified, looked up): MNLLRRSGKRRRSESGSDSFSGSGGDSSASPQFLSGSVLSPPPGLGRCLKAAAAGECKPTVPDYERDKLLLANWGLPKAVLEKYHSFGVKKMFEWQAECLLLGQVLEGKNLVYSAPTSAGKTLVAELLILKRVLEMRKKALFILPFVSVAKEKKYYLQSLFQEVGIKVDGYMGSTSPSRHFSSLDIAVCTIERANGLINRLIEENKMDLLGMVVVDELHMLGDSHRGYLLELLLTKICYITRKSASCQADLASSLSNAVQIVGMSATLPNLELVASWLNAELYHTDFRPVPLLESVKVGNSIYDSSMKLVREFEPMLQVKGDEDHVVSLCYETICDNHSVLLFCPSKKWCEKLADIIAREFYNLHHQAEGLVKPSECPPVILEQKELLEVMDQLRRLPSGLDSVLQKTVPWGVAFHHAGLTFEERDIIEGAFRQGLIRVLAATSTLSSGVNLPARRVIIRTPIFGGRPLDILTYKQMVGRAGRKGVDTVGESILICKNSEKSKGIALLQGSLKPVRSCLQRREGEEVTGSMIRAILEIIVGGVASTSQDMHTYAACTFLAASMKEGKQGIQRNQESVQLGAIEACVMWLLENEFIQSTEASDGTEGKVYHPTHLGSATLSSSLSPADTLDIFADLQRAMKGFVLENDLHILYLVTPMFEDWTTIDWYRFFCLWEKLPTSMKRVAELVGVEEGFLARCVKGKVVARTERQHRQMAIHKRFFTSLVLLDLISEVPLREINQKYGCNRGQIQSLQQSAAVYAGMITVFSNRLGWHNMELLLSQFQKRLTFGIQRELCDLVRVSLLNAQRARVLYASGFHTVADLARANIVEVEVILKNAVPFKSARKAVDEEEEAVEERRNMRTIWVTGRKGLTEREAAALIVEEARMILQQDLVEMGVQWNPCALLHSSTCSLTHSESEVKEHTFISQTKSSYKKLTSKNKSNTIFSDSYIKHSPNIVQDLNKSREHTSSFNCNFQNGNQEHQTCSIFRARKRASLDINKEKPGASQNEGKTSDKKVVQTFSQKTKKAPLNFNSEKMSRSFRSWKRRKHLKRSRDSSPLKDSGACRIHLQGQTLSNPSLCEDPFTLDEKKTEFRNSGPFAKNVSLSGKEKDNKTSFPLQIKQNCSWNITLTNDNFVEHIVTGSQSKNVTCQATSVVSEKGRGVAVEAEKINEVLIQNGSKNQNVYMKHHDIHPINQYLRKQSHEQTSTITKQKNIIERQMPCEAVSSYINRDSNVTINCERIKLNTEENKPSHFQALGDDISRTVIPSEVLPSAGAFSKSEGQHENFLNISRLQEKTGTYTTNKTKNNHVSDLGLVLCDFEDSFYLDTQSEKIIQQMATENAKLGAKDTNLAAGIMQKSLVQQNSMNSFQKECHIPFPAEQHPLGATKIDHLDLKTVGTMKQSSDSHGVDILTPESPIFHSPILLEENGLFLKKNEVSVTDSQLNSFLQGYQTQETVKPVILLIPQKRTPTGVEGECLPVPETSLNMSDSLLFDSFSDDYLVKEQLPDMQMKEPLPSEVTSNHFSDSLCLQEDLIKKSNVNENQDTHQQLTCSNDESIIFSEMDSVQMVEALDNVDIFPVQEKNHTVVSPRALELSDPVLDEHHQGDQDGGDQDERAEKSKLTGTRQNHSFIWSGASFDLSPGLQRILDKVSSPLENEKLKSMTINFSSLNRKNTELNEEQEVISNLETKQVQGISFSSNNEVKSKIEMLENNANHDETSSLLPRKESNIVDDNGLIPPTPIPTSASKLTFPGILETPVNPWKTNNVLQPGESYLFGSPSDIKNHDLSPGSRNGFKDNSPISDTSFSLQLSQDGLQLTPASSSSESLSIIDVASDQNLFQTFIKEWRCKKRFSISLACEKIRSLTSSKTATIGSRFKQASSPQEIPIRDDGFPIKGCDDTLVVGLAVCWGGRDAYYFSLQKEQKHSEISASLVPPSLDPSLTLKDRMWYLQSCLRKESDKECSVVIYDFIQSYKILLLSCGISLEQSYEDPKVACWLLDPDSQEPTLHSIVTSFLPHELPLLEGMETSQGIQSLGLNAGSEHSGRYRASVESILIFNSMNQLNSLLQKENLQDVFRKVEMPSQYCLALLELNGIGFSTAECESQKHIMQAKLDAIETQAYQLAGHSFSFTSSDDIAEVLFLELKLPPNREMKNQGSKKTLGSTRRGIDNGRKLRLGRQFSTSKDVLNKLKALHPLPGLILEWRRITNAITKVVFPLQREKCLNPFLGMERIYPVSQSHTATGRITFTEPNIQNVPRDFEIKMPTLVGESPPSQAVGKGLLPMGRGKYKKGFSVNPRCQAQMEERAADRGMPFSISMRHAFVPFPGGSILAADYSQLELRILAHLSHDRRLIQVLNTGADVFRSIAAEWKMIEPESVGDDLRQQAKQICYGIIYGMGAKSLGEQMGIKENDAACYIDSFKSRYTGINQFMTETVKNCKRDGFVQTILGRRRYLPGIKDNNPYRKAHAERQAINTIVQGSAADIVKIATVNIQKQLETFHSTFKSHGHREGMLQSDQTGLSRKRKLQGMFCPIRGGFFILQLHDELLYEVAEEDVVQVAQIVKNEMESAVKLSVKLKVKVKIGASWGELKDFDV
SMILES	remaining activity
CCCCCCNC(=O)n1cc(F)c(=O)[nH]c1=O	104%
C[N+]1(C)CCC(=C(c2ccccc2)c2ccccc2)CC1	97.7% and 95.2%
S=C(NCc1ccc2c(c1)OCO2)N1CCN(c2ncnc3c2oc2ccccc23)CC1	99.5% and 94.9% and 101% and 92.1%
CCN(CC)CCOC(=O)C1(c2ccc([N+](=O)[O-])cc2)CCCC1	98.3%
NS(=O)(=O)c1cc2c(cc1Cl)NC(CC1CCCC1)NS2(=O)=O (centres unmarked)	101%
C[C@H](CCC(=O)O)[C@H]1CC[C@H]2[C@@H]3C[C@H](O)[C@@H]4C[C@H](O)CC[C@]4(C)[C@H]3CC[C@]12C	91.6%

Repeated from above (block 2):
SMILES	viability [%]
C[C@@H]1O[C@@H](OC[C@H]2O[C@@H](Oc3c(-c4ccc(OCCO)c(OCCO)c4)oc4cc(OCCO)cc(O)c4c3=O)[C@H](O)[C@@H](O)[C@@H]2O)[C@H](O)[C@H](O)[C@H]1O	108
CN(C(=O)CN(CCO)CC(=O)N(C)C(C)(C)Cc1ccccc1)C(C)(C)Cc1ccccc1	-1.68
Cc1cccc(C)c1NC(=O)c1ccccc1C(=O)O	106
C=CCc1ccc(O)c(-c2cc(CC=C)ccc2O)c1	0.387
CCCSc1nc(N[C@@H]2C[C@H]2c2ccc(F)c(F)c2)c2nnn([C@@H]3C[C@H](OCCO)[C@@H](O)[C@H]3O)c2n1	-2.03
Cn1c(=O)c2c(ncn2CCO)n(C)c1=O	102
CC(C)c1cc2c(cc1S(=O)(=O)O)[C@@]1(C)CCC[C@@](C)(C(=O)O)[C@@H]1CC2	108
